Results from different studies.
Lines come from different studies, so protocols differ. ± gives the spread as reported.
VCP: Transitional endoplasmic reticulum ATPase (VCP, Homo sapiens, UniProt P55072)
UniProt P55072, sequence (whole entry, looked up): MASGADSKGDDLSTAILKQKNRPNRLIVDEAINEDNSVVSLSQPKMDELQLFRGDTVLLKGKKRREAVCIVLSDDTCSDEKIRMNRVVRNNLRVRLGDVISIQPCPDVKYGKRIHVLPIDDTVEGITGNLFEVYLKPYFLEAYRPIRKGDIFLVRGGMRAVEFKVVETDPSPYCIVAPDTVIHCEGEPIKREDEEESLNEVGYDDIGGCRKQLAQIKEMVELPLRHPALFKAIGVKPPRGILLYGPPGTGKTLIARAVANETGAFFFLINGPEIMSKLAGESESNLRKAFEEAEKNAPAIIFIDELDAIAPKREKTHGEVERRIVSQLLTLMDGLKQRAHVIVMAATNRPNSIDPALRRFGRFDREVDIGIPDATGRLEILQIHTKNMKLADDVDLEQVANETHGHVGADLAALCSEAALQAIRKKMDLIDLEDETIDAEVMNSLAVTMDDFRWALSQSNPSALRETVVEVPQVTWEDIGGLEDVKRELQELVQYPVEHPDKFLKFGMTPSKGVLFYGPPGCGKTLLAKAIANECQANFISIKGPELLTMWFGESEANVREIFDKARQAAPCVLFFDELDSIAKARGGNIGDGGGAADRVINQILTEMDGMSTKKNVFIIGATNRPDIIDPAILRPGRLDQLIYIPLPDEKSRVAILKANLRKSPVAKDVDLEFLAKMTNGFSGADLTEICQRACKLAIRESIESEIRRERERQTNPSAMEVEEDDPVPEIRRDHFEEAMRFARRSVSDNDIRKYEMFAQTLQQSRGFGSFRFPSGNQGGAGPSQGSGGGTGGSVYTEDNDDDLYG
UniProt O94806, sequence (whole entry, looked up): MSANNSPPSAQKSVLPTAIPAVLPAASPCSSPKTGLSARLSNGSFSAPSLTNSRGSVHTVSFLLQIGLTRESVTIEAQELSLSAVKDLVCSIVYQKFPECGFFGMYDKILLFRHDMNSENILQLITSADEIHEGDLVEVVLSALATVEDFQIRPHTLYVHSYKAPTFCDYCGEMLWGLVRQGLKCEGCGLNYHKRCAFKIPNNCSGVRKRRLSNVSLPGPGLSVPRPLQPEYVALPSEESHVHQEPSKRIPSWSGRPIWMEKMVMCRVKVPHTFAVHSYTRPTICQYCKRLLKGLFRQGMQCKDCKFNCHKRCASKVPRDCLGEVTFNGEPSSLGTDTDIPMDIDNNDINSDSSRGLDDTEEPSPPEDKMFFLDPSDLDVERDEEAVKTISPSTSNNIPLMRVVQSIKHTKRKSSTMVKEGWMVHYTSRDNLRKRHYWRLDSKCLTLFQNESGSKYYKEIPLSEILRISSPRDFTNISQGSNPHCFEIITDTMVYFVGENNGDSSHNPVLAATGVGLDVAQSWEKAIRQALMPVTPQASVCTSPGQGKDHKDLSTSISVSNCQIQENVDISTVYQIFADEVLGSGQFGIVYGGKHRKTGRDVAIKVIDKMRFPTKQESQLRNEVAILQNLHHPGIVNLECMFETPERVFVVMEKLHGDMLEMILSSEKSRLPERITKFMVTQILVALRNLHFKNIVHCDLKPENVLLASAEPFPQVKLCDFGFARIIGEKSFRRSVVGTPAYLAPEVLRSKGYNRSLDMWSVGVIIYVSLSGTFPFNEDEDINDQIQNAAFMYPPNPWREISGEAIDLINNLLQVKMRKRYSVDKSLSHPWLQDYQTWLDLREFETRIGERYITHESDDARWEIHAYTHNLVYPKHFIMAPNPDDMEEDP
UniProt Q9R1P1, sequence (whole entry, looked up): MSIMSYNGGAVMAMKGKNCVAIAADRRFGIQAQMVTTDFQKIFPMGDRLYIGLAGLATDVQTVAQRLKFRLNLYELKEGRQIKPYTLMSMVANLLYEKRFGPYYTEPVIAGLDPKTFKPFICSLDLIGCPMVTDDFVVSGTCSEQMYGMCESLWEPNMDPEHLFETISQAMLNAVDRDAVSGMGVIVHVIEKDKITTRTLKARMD
UniProt P28223, sequence (whole entry, looked up): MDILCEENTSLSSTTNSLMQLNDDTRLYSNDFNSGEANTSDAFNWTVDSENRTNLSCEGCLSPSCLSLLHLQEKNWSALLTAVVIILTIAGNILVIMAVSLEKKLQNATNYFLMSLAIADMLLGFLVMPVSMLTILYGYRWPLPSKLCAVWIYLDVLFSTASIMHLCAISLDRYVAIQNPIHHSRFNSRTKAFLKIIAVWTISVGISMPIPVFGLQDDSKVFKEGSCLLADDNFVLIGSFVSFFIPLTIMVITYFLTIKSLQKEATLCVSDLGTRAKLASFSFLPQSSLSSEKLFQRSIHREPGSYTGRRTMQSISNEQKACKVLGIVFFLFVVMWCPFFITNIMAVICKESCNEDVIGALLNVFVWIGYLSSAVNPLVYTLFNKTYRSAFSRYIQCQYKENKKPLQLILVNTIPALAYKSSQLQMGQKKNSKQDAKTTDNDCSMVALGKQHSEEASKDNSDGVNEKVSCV
UniProt P16591, sequence (whole entry, looked up): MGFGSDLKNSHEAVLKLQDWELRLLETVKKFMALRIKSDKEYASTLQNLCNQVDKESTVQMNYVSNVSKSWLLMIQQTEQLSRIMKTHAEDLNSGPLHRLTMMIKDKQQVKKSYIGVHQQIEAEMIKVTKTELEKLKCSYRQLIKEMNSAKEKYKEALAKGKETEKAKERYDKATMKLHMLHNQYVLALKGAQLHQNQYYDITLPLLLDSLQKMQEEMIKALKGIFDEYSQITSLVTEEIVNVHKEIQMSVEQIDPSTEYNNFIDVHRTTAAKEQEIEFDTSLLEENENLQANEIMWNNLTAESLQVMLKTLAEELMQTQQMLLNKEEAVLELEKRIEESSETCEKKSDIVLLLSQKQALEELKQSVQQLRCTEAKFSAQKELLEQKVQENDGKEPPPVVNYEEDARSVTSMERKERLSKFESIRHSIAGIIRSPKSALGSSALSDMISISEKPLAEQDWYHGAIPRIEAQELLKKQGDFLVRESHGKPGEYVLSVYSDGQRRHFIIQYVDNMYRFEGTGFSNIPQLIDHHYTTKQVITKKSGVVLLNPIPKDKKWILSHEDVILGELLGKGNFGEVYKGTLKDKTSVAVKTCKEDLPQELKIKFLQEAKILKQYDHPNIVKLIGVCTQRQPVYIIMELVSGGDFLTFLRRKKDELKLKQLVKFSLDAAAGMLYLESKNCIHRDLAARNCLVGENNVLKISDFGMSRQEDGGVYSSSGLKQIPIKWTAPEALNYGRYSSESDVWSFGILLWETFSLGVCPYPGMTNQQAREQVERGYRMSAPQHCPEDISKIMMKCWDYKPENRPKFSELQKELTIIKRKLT
UniProt Q9NWZ3, sequence (whole entry, looked up): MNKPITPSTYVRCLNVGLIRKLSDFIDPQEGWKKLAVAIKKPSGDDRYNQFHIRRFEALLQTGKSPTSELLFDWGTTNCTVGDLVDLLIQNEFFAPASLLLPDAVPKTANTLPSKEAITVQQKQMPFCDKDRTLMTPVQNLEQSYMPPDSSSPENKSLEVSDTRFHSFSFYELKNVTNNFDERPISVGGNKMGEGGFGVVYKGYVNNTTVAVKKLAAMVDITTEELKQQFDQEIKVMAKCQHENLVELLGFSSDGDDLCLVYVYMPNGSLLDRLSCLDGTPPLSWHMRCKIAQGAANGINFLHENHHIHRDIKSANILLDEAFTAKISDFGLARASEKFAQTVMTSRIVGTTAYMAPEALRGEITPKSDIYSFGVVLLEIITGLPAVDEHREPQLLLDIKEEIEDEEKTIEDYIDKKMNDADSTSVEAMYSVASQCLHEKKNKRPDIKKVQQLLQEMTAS
UniProt Q7Z5P4, sequence (whole entry, looked up): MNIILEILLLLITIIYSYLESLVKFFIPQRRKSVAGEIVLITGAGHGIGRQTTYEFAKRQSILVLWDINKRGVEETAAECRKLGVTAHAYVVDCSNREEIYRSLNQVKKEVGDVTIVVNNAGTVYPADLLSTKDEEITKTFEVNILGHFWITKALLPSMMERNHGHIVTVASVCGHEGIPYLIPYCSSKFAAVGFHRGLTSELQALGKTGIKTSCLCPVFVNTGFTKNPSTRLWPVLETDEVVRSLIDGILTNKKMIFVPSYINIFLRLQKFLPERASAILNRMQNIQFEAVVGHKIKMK
UniProt Q99873, sequence (whole entry, looked up): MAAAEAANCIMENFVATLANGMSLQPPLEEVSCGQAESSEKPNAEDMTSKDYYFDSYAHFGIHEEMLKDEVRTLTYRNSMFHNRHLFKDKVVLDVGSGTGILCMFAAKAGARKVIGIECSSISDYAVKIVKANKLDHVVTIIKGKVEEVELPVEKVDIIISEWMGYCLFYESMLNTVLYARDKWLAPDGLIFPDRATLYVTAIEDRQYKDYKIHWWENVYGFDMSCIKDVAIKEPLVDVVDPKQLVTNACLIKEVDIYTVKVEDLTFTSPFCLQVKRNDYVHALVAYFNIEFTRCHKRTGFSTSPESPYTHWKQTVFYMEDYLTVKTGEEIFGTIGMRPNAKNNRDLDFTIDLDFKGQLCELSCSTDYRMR
UniProt P53778, sequence (whole entry, looked up): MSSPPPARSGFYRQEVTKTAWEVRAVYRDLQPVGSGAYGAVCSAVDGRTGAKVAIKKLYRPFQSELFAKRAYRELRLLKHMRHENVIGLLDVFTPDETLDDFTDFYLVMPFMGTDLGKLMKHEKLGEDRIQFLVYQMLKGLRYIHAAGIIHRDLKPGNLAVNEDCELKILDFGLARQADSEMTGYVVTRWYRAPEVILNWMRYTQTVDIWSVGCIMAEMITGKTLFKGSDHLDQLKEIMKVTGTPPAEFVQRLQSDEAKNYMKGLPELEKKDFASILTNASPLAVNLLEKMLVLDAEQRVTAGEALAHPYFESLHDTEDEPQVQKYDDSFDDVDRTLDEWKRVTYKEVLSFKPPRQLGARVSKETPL
UniProt O35955, sequence (whole entry, looked up): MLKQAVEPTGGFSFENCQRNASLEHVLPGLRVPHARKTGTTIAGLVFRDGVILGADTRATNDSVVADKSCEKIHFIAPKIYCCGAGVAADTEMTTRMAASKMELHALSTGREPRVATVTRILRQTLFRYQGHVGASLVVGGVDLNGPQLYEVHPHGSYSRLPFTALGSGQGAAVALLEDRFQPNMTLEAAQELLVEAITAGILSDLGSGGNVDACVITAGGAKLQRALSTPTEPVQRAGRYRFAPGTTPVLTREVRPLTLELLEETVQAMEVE

CCn1c(-c2nc3ccc(C(=O)N4CCCC(N)C4)cc3n2C)cc2ccccc21 (stereo not shown)
IC50 (HTR2A (Homo sapiens, UniProt P28223); intracellular calcium, antagonist, luminescence): 5010 nM

Cc1ccc(Nc2nc(NCc3ccccc3)c3ccccc3n2)cc1
IC50 (VCP; enzyme activity, inhibitor): 2200 ± 400 nM

CN1CCN(c2ccc(Nc3ncc4cc(C#N)c(=O)n(C5CCCC5)c4n3)cc2)CC1
IC50 (FER (Homo sapiens, UniProt P16591)): 936 nM

COc1ccc(Nc2nc(N3CCN(c4ccc([N+](=O)[O-])cc4)CC3)nc3ccccc23)cc1
IC50 (VCP; enzyme activity, inhibitor): 30000 ± 6000 nM

CNC(=O)c1ccccc1Nc1nc(Nc2ccc(CO)nc2)ncc1Cl
IC50 (IRAK4 (Homo sapiens, UniProt Q9NWZ3); cell-based): 45.4 ± 3.81 nM

CC(Nc1nc(-c2ccccc2F)nc2ccccc12)c1ccccc1 (stereo not shown)
IC50 (VCP; enzyme activity, inhibitor): > 30000 nM

CC(C)(C)n1nc(-c2ccc3nc(OC4CC4)ccc3c2)c(C(N)=O)c1N
IC50 (PRKD3 (Homo sapiens, UniProt O94806); binding): 220 nM

Cc1cc(C)nc(NC(=S)N2CCN(c3ccncc3)CC2)c1
IC50 (MAPK12 (Homo sapiens, UniProt P53778); kinase activity, inhibitor, ADP-Glo): 1000 nM

Cc1ccc(-c2nc(NCc3ccccc3)c3ccccc3n2)cc1
IC50 (VCP; enzyme activity, inhibitor): 5700 ± 700 nM

CC[C@H](C)[C@H](NC(=O)[C@H](CS)NC(=O)[C@H](CCC(=O)O)NC(=O)[C@H](C)NC(=O)[C@@H](NC(=O)[C@@H](N)CCCNC(=N)N)[C@@H](C)CC)C(=O)N[C@@H](CC(C)C)C(=O)NCC(=O)N[C@@H](CCSC)C(=O)O
IC50 (HLA class I histocompatibility antigen, A alpha chain, allele A*02:03 (Homo sapiens, UniProt P04439); binding, competitor, radioligand competition; two days, room temperature, HLA-A*02:03): 2170 nM

CC(C)C[C@H](NC(=O)[C@H](CCc1ccccc1)NC(=O)CN1CCOCC1)C(=O)N[C@@H](Cc1ccccc1)C(=O)N[C@@H](CC(C)C)C(=O)[C@@]1(C)CO1
IC50 (Psmb10/Psmb3 (Mus musculus, UniProt O35955+Q9R1P1); proteasome subunit activity; Ba/F3 BCR-ABL1 p210; 1 h pulse): 63.3 ± 8.87 nM

Cc1cnc(-c2ccc(-c3ccc(NC(=O)Nc4c(F)cc(F)cc4F)cc3F)c3c2C(=O)NC3)[nH]1
IC50 (Aurora kinase B (AURKB, Homo sapiens, UniProt Q96GD4); enzyme activity, inhibitor): 32.7 nM

Clc1ccc(Nc2nc(NCc3ccccc3)c3ccccc3n2)cc1Cl
IC50 (VCP; enzyme activity, inhibitor): 8100 ± 2600 nM

COc1ccnc(CNC(=O)c2cn(Cc3ccc(Cn4ccccc4=O)cc3)nc2C2CC2)c1F
IC50 (F10 (Homo sapiens, UniProt P00742)): 8600 nM

O=C(O)c1ccc(NS(=O)(=O)c2ccc(Cl)c(Cl)c2)cc1F
IC50 (17-beta-hydroxysteroid dehydrogenase 13 (Homo sapiens, UniProt Q7Z5P4); inhibitor, NAD(P)H-Glo; with: β-estradiol): 140 nM

N=C(NCCCSC[C@H]1O[C@@H](n2cnc3c(NCCCc4ccccc4)ncnc32)[C@H](O)[C@@H]1O)NCC1CCCCC1
IC50 (PRMT1 (Homo sapiens, UniProt Q99873); enzyme activity, inhibitor, SAHH-coupled fluorescence; with: 5 µM histone H4 peptide, 10 µM SAM): 1210 ± 70 nM

For quick reference, copied from above:
CCn1c(-c2nc3ccc(C(=O)N4CCCC(N)C4)cc3n2C)cc2ccccc21 (stereo not shown)
IC50 (HTR2A (Homo sapiens, UniProt P28223); intracellular calcium, antagonist, luminescence): 5010 nM

CC(Nc1nc(-c2ccccc2F)nc2ccccc12)c1ccccc1 (stereo not shown)
IC50 (VCP; enzyme activity, inhibitor): > 30000 nM

CN1CCN(c2ccc(Nc3ncc4cc(C#N)c(=O)n(C5CCCC5)c4n3)cc2)CC1
IC50 (FER (Homo sapiens, UniProt P16591)): 936 nM
